Values quoted from earlier work, collected from citations in different studies.
Numbered parts are unrelated; values within a part may stem from several laboratories. In brackets after ≈: the same amount, converted by molar mass.

Series 1
Organism: Cryptosporidium parvum
Technique: high-throughput screen
Tested at: concentration not given
`C[C@H]1COc2c(N3CCN(C)CC3)c(F)cc3c(=O)c(C(=O)O)cn1c23`: activity “inactive”.
`CC(C)(C)NC[C@H](O)COc1nsnc1N1CCOCC1`: activity “inactive”.
For `C=C1/C(=C\C=C2/CCC[C@]3(C)[C@@H]([C@H](C)/C=C/[C@@H](O)C4CC4)CC[C@@H]23)C[C@@H](O)C[C@@H]1O`, activity read “inactive”.
`OC[C@H]1O[C@@H](n2cnc3c(NC4CCCC4)nc(Cl)nc32)[C@H](O)[C@@H]1O` — result for activity: “inactive”.
Under activity, `Cc1cn([C@H]2C=C[C@@H](CO)O2)c(=O)[nH]c1=O` is recorded as “inactive”.
Under activity, `COc1ccc(/C=C/C(=O)Nc2ccccc2C(=O)O)cc1OC` is recorded as “inactive”.

Other studies, line by line
`CO[C@@H](C)c1c(Nc2ccc([C@H](N(C)C(=O)C3CCS(=O)(=O)CC3)C(F)(F)F)cc2)cnc2cc(Cl)nn12` gave an IC50 of 3500 nM (FLT3; enzyme activity, kinase panel).
The solubility of `Cc1cc(C#N)cc(C)c1Oc1nc(Nc2ccc(C#N)cc2)nc(N)c1Br` is reported as roughly 0.99 µg/mL (≈ 2.27 µM) (FaSSIF).
For `CN(C)CC#Cc1ccc(OCCCc2sc(N3CCc4cccc(C(=O)Nc5nc6ccccc6s5)c4C3)nc2C(=O)O)c(F)c1`, the IC50 was 0.55 nM (BCL2L1; biochemical).
For `CCOc1ccc(Cc2cc([C@@H]3O[C@H](CO)[C@@H](O)[C@H](O)[C@H]3O)ccc2Cl)cc1`, the Kd was 1990 nM (ERRα).
`O=C(N1CCS(=O)(=O)CC1)N1C[C@H](c2ccc(OC(F)(F)F)cc2)C[C@H](c2nc(C3CC3)no2)C1` has an IC50 of 56 nM (F2R; biochemical activity).
`CCCOc1ccc([C@H]2[C@H](C(=O)O)[C@@H](c3ccc4c(c3)OCO4)CN2CC(=O)Nc2c(CC)cccc2CC)cc1` has an IC50 of 4.5 nM (EDNRB; biochemical).

A few entries again (series 1):
Under activity, `COc1ccc(/C=C/C(=O)Nc2ccccc2C(=O)O)cc1OC` is recorded as “inactive”.
